Results collected from several papers.
A part holds a random share of what one study measured.
Chain of UniProt P61075 (whole entry, looked up): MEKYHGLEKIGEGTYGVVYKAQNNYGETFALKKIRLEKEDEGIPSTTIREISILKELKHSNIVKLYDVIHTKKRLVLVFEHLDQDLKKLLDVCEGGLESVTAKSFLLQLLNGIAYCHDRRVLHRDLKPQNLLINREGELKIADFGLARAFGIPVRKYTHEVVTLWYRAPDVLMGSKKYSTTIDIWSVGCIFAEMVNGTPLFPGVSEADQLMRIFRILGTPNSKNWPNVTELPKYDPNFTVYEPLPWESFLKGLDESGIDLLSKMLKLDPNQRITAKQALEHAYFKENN
Chain of UniProt P37173 (whole entry, looked up): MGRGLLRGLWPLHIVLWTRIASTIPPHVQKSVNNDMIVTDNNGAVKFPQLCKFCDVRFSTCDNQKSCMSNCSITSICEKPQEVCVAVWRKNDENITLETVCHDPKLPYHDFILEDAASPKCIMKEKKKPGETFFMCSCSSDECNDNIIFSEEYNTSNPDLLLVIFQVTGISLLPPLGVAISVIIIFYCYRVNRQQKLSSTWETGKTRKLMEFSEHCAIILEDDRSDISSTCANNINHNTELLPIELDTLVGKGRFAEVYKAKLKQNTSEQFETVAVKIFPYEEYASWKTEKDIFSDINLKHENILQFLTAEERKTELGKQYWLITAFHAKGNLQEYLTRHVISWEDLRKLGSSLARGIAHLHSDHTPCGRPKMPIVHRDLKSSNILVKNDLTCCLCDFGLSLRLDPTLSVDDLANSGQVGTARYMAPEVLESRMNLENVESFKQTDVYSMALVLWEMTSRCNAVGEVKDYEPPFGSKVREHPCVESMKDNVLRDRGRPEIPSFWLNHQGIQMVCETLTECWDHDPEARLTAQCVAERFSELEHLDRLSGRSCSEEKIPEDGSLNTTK

Sample 1 — effect on: kinase activity; mode: inhibitor; time: 1 h
SMILES: CC(C)(C)c1nc(-c2cccc(NS(=O)(=O)c3c(F)cccc3F)c2F)c(-c2ccnc(N)n2)s1
Target: Receptor-interacting serine/threonine-protein kinase 3 (RIPK3, Homo sapiens, UniProt Q9Y572)
Chain of UniProt Q9Y572 (whole entry, looked up): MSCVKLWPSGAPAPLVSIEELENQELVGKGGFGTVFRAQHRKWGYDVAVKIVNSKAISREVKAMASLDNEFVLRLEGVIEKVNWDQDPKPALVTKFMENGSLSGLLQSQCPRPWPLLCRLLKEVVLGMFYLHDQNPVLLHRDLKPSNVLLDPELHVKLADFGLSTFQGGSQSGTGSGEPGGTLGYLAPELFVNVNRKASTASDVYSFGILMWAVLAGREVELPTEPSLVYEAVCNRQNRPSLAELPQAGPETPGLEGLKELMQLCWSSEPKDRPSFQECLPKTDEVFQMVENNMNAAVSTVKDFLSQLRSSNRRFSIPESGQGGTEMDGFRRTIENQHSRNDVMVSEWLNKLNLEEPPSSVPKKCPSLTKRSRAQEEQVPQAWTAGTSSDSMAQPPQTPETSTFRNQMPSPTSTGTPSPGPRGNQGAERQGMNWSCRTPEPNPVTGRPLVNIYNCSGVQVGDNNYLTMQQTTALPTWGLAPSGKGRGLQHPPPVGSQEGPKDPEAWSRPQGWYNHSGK
The inhibition was 74.2% (ADP-Glo; 62.5 nM).
For ADP-Glo; 250 nM: inhibition read 96.3%.
For ADP-Glo; 7.813 nM: inhibition read 44.9%.
The inhibition was 100% (ADP-Glo kinase; 1000 nM).
For ADP-Glo; 1.953 nM: inhibition read 32.8%.

Sample 2 — organism: Sarcocystis neurona; effect on: parasite growth; concentration: 10 µM; time: 96 h; relative to: untreated
`COc1ccccc1OCCNCC(O)COc1cccc2[nH]c3ccccc3c12` (stereo not drawn): “log2 fold change” -0.59.
Under “log2 fold change”, `CC(C)(S)[C@@H](N)C(=O)O` is recorded as 0.3.
For `CO[C@H]1O[C@@H]2O[C@@]3(C)CC[C@H]4[C@H](C)CC[C@@H]([C@H]1C)[C@@]24OO3`, “log2 fold change” read -1.42.
For `CC(=O)SCC(Cc1ccccc1)C(=O)NCC(=O)OCc1ccccc1` (stereo not drawn), “log2 fold change” read 0.39.
For `CC(C)C(=O)Nc1ccc([N+](=O)[O-])c(C(F)(F)F)c1`, “log2 fold change” read 0.36.
`CN(C)CCCN1c2ccccc2Sc2ccc(Cl)cc21` — result for “log2 fold change”: -0.48.
`C[C@H](CCC(=O)O)[C@H]1CC[C@H]2[C@@H]3[C@@H](O)C[C@@H]4C[C@H](O)CC[C@]4(C)[C@H]3CC[C@]12C`: “log2 fold change” 0.34.
`OC[C@H]1O[C@@H](Oc2cc(O)cc(/C=C/c3ccc(O)cc3)c2)[C@H](O)[C@@H](O)[C@@H]1O` — result for “log2 fold change”: 0.28.

Further values, each from its own experiment
For `N#C/C(=C(/N)SC1C=CC=CC1)c1cccc(C(O)c2ccncc2)c1` (stereo not drawn), the Gini score was 0.74 (panel of 300 human kinases; 0.5 µM; higher = more selective).
`Nc1cnc(N2CCc3cc(S(=O)(=O)Nc4c(F)cc(Cl)cc4F)cc(N4CCCC4=O)c32)nc1` gave a remaining binding of 100% (CRK2 (Plasmodium falciparum, UniProt P61075); cell-free assay, competition with immobilised ligand; 1 µM).
The Gini score of `Oc1ccc(-c2nc(-c3ccncc3)c(-c3ccc(F)cc3)[nH]2)cc1` is reported as 0.76 (panel of 300 human kinases; 0.5 µM; higher = more selective).
The remaining signal of `C[S+]([O-])c1ccc(-c2nc(-c3ccncc3)c(-c3ccc(F)cc3)[nH]2)cc1` (stereo not drawn) is reported as 144% (TGFBR2 (Homo sapiens, UniProt P37173); cell-free assay; 0.5 µM).
For `O=c1c(-c2ccc(F)cc2)c(-c2ccncc2)[nH]n1-c1ccc(Cl)cc1`, the Gini score was 0.62 (panel of 300 human kinases; 0.5 µM; higher = more selective).

Some of these lines once more (sample 2):
For `CO[C@H]1O[C@@H]2O[C@@]3(C)CC[C@H]4[C@H](C)CC[C@@H]([C@H]1C)[C@@]24OO3`, “log2 fold change” read -1.42.
For `CC(=O)SCC(Cc1ccccc1)C(=O)NCC(=O)OCc1ccccc1` (stereo not drawn), “log2 fold change” read 0.39.
